Assay results pooled from the literature.
Parts stem from different laboratories: compare values within a part only.

Study 1 — technique: universal PBM; molecule type: double-stranded DNA, one strand shown; sample: in vitro; tested at: 600 nM; reading: higher = stronger binding
Target: Sal-like protein 4, full length isoform A (SALL4, Homo sapiens, UniProt Q9UJQ4, residues 1-1053)
Sequence of UniProt Q9UJQ4 (whole entry, looked up): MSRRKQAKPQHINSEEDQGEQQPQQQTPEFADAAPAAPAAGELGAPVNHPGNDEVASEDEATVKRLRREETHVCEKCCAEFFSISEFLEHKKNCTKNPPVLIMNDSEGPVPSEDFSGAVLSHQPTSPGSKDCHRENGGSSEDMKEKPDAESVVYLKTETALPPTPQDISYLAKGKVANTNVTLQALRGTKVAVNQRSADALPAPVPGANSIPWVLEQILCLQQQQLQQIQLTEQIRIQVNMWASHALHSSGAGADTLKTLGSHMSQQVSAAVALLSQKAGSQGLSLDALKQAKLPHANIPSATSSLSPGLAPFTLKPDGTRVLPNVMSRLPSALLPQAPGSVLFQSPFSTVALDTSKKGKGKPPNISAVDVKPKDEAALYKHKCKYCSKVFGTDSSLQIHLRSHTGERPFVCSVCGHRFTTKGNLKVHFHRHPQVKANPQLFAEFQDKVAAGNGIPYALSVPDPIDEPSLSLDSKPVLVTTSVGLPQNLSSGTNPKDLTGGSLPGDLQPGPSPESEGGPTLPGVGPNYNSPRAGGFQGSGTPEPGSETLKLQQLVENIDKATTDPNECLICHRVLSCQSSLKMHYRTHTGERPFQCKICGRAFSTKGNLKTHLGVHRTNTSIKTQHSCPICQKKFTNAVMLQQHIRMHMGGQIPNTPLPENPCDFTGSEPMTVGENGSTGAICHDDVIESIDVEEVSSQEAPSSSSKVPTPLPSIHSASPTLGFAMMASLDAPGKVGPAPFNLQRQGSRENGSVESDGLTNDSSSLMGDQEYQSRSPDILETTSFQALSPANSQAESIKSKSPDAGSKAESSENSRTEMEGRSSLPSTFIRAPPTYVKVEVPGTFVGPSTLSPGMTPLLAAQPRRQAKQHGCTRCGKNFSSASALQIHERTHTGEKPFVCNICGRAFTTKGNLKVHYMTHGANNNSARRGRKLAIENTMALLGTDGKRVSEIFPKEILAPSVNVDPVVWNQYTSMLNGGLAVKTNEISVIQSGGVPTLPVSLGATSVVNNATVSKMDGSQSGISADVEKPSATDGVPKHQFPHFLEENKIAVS
Notes: 8-mer, flanks averaged, mean of replicates
`TCTTAGCA` gave an E-score of 0.0775.
The E-score of `AGTACTGG` is reported as -0.17.
For `CGGCATAC`, the E-score was -0.141.
The E-score of `CGTTACCA` is reported as 0.0656.
With `AACGGCGA` the E-score was 0.0239.
`CTAAAAAC` has an E-score of -0.114.
For `AACTAATA`, the E-score was 0.373.
`GCACCTGC` gave an E-score of -0.219.
With `GTCGGTGA` the E-score was -0.224.
`AATGAGCA` has an E-score of 0.132.
For `CTGTGTGC`, the E-score was -0.157.
`AACTTGAA` has an E-score of 0.231.
With `CGGCGCTA` the E-score was -0.288.
With `TAGTTCCA` the E-score was 0.172.
`AACGGTCA` gave an E-score of -0.0414.
`AACGGACT` has an E-score of 0.0643.
For `CGACAGTA`, the E-score was -0.0561.

Study 2 — technique: protein binding microarray; molecule type: double-stranded DNA, one strand shown; sample: in vitro; tested at: not given; baseline: not given; reading: higher = stronger binding
Target: Histone acetyltransferase KAT6A, both winged helices, GST fusion (KAT6A, Homo sapiens, UniProt Q92794, residues 1-181)
Notes: 8-mer, flanks averaged, mean of 2 arrays, mostly near background
Residues (chain): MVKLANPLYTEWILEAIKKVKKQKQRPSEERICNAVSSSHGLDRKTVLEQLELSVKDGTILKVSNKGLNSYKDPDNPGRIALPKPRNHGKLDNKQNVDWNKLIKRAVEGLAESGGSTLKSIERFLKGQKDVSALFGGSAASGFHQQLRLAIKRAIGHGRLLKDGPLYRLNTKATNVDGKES
`ACCGCGGC` has an E-score of 0.389.
`ACTTTAAA` has an E-score of -0.0264.
With `ACATCGGA` the E-score was 0.0247.
With `CACCTAGA` the E-score was -0.134.
The E-score of `CAAGTCAC` is reported as -0.0787.
With `CATTTTAA` the E-score was -0.0606.
The E-score of `AGAGCACA` is reported as -0.204.
`CAGGTTCC` gave an E-score of -0.0612.
For `CCGTTCCA`, the E-score was 0.117.
With `ATTTCCCG` the E-score was 0.19.
For `AAGAGAAG`, the E-score was -0.0596.
With `GCGTTGAA` the E-score was 0.254.
With `ACGATTGG` the E-score was -0.0383.
The E-score of `AGTTGCGA` is reported as -0.0788.
`ATCCAACA` has an E-score of -0.0907.
`ACAGCGCC` has an E-score of 0.277.
For `CCTATGCG`, the E-score was 0.119.

Study 3 — technique: RNA Bind-n-Seq; molecule type: RNA; sample: in vitro; tested at: 200 nM; notes: whole 134-nt RNA, ends assumed; added: 150 mM LiCl; baseline: input library; reading: higher = stronger binding; all molecules: 7-deaza-guanosine replaces G
Target: Fragile X messenger ribonucleoprotein 1, C-terminal low-complexity region (Fmr1, Mus musculus, UniProt P35922)
`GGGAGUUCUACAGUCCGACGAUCAAGUCCUGUGCUACACAUCGUAUGUACCGAAUCGGGUUUGGGUGGGUUUUUUUGGGAAAGUAUUAUGUUACGCCGUUCGGAUCUGCACUUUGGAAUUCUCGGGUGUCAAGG` gave a log2 enrichment of -1.42.
`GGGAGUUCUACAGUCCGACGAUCAGUCCUGUGCUACACAUCGUAUGUACCGAAUCGGAAAAAGGAAAAAGGAAAAAGGGGAAAGUAUUAUGUUACGCCGUUCGGAUCUGCACUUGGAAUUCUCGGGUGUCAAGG` gave a log2 enrichment of -1.54.
The log2 enrichment of `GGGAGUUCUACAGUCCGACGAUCUUGGCGCAUGCGCCUAAAGCUGACGGGUUUGAAAUGGCUUCGAUGUUAGCCGGGACCCGACUCAGGUGAAGGUCUGGUCCCCGUAGUUGGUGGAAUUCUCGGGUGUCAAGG` is reported as -1.37.
`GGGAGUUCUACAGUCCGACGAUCUAGUCACCUACUGCCACCUUCGAAAAACACGGAGAGCACCUACCCAGAGGAGAAGGUAGAUUUGGAGUAAGCCGCCGUCGACAUAAUUCCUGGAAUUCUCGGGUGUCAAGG` gave a log2 enrichment of 0.538.
The log2 enrichment of `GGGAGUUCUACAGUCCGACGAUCUGGCCCUGGUGGCAUGCGGGGAGGAAGAGGUGGCCUCAUGGAUCGUGGUGGACCCGGUGGAAUGUUCAGAGGUGGCCGUGGUGGAGACAGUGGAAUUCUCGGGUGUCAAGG` is reported as 0.542.
The log2 enrichment of `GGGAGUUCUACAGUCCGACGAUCAACAUGCAGGUGGGCAUCUUUGGGAAGUGGGGCAAGGGGGGGAUAGGGAGGGGGGUAACACUUUGGGAACAGGUGGUCCCAGGUCGUUUCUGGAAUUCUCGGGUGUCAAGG` is reported as 1.35.
With `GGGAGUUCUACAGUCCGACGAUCCAAGUCCUGUGCUACACAUCGUAUGUACCGAAUCGGGGUUGGGGUUGGGGUUGGGAAAGUAUUAUGUUACGCCGUUCGGAUCUGCACUUCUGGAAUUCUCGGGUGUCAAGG` the log2 enrichment was -0.697.
`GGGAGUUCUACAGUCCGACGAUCAAGUCCUGUGCUACACAUCGUAUGUACCGAAUCGGGGCCCGGGGCCCGGGCCCGGGAAAGUAUUAUGUUACGCCGUUCGGAUCUGCACUUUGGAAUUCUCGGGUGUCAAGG` has a log2 enrichment of -2.57.
With `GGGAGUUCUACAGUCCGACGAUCGCAGGAAGUAAAAACAAAUGGAAAUGCUGCGGAUAGUGGCAGGGGUGGGGGUUGCUAAGGAAAGGGUGGGAUGGGAGUGGGUAAAGAGUUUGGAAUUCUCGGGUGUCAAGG` the log2 enrichment was 1.9.
The log2 enrichment of `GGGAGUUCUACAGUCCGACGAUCACCAUGCAGGUGUGCAUCUUUGGGAAGUGGGGCAAGGGGGGGAUAGGGAGGGGGGUAACACUUUGGGAACAGGUGGUCCCAGGUCGUUUCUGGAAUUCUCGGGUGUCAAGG` is reported as 1.27.
The log2 enrichment of `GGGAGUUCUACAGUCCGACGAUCCUGUGCUACACAUCGUAUGUACCGAAUCGGGGUUUUUUUGGGGAAAGGGGUUUUUUUGGGGAAAGUAUUAUGUUACGCCGUUCGGAUCUGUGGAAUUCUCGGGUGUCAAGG` is reported as -0.667.

Study 4 — technique: RNA Bind-n-Seq; molecule type: RNA; sample: in vitro; tested at: 365 nM; baseline: no-protein control; reading: higher = stronger binding
Target: RNA binding protein fox-1 homolog 2, RRM domain, GST-SBP tag (RBFOX2, Homo sapiens, UniProt O43251-10, residues 100-194)
Notes: natural RNA segment, single round, ends assumed
Target sequence (chain): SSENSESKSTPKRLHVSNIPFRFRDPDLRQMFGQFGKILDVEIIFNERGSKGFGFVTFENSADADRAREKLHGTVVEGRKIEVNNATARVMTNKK
`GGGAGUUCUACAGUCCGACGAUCCAAAAAUAUUUAAGUGUGCCUAUGAUAAUGUCUGAACCUGAGUUUAAGAAAUGUGAUGUAGCCGGGCGUGGUGGCACACGCCUUUAAUCCCAGCACUUGGGAGGCAGACGUGGAAUUCUCGGGUGCCAA` — result for “RBNS enrichment (R)”: 1.2.
`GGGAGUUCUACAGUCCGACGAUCAACUUCCAUACAUUAGGUAACGUCUUAUAAUGUAAGGACAUGGUAUCCACUGCCCUAAAGAUUUAGACAUCCAUCACAGACUCUGCAGUGGUGUUUCUACUCCAGUGAGGUGGAAUUCUCGGGUGCCAA` — result for “RBNS enrichment (R)”: 0.348.
Under “RBNS enrichment (R)”, `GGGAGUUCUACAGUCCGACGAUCGAGUGAUCCCAUUUCUUAAUCAGUGUAGCCCCAAGAAGGCUGGGGCUAUUUACCAGGGUAGAAAAAGGAGCUUACCUCCCACCUUUGGUCCUAAGUCCCUGCCCCCUCCCUGGAAUUCUCGGGUGCCAA` is recorded as 0.417.
`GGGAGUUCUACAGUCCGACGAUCAACUGAAUAAAUAUCAGUUAAAAGAUUGCCAGCAUGGUUACAGGUAAACUGAUUUUCAGAAUUCACUGAACUACUAAAUGUGGGAUUGGAUAAUAGACUUGGAGUGCCGCUGGAAUUCUCGGGUGCCAA` — result for “RBNS enrichment (R)”: 2.26.
Under “RBNS enrichment (R)”, `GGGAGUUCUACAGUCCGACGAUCUACCUGUACUAAACCACCUCAGAAAGGAUUUUACAGAAACGUGUUAAAGGUUUUCUCUAACUUCUCAAGUCCCUUGUUUUGUGUUGUGUCUGUGGGGAGGGGUUGUUUUGUGGAAUUCUCGGGUGCCAA` is recorded as 0.581.
`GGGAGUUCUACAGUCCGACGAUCCAGUAUGGUUCUCGGAGUCCAAAGGGUUUUAAGCCAGGGCACAACCAGAAAAGUGGCUCUCUUUGGUAGGGAGAGGGGCUCCAAUAUUUCGUUCUCUCCCCAUGGGGCACUGGAAUUCUCGGGUGCCAA`: “RBNS enrichment (R)” 0.362.
`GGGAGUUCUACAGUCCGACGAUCAUGAUUUGCAUGAUAUCUUGAAACUGGGGGAAGGGGGCAUGCCAAGUUGGGCAUCACUUCGUCUUAGCAGUUAGUGGAUUACUGAUUACUAAAAUAGGUUAAUAGUAAGCUGGAAUUCUCGGGUGCCAA` — result for “RBNS enrichment (R)”: 3.71.
For `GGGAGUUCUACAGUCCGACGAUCUCAAGGACAAAUCUGUAAGUUUCUUAUUUCUGUAGUGCAAGUAAAAUUUCACUUUUUGAAACUAUAGAGAGAUCCCUUUCUGAUUAGCCUACAGAACUUAAAGUGAGGGAUGGAAUUCUCGGGUGCCAA`, “RBNS enrichment (R)” read 0.427.
`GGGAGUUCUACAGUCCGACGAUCGUCAUGGUGGUGGGUUUCUAUCAUCCUGUCUCUGUUUAAAAGGGACUGAAUAGUUGGGUUUUAAAAGUGCAUGCUAUAAACAGACGAGCAUCCUAGAGCUCACUGAGCACUGGAAUUCUCGGGUGCCAA`: “RBNS enrichment (R)” 4.42.
`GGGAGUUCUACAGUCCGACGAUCGCCACCUGUACCUCACGGCUGCUAUGCUUGCGUGUUUCCACUGACGAUGGGGCCUCUUUCUAAAGGCAGUUGCUGCAAAUUCCAGUUCUUCCAAAAGUCACUUGAUUUAAUGGAAUUCUCGGGUGCCAA` — result for “RBNS enrichment (R)”: 0.393.
`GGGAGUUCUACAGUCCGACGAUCAUUAUAGUGCUUUGUUUGUUUCAGGGUUGGAAUUCUCAACCAGAAAUAAUACUUUCUAAAAUAUUUUAAAAUUCAGCUUGUGCUUUGGAUUAUAGAAGGAAAUUAUACUUUGGAAUUCUCGGGUGCCAA` — result for “RBNS enrichment (R)”: 1.7.
For `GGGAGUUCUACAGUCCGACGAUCCAUUUGAAUGACCCUCAGCAAUGUGCCUCCCUGCCCUCAAAUUCCCAGUUGAUAACAGUGUUUGAUUAAAUUUCCACUCAAGCCAAACAUGGUUACUAAGAAGAGAAAAAUGGAAUUCUCGGGUGCCAA`, “RBNS enrichment (R)” read 0.469.

Study 5 — technique: aptamer microarray, sandwich; molecule type: DNA with 2'F-ANA; sample: in vitro; tested at: 200 nM; added: Cy3 exosite-II aptamer, 400 nM; reading: higher = stronger binding; oligonucleotide: GGTTGGTGTGGTTGG
Target: Prothrombin, mature alpha-thrombin (F2, Homo sapiens, UniProt P00734)
Notes: whole 15-mer aptamer, many near background
Under “mean fluorescence intensity”, `2'F-ANA at 2 4 8 9 12 13` is recorded as 431 a.u.
`2'F-ANA at 3 4 7 9 10 12 13 14 15` — result for “mean fluorescence intensity”: 192 a.u.
For `2'F-ANA at 6 7 8 11 13 14`, “mean fluorescence intensity” read 184 a.u.
`2'F-ANA at 1 2 3 6 10 11 12 14 15`: “mean fluorescence intensity” 50.8 a.u.
`2'F-ANA at 2 3 9 10 11 13`: “mean fluorescence intensity” 339 a.u.
`2'F-ANA at 3 4 5 6 7 8 9 14` — result for “mean fluorescence intensity”: 49.9 a.u.
Under “mean fluorescence intensity”, `2'F-ANA at 1 6 8 9 11 14 15` is recorded as 56.7 a.u.
For `2'F-ANA at 1 2 5 6 9 14 15`, “mean fluorescence intensity” read 46.4 a.u.
`2'F-ANA at 2 3 5 9 10 11 12 13 14` — result for “mean fluorescence intensity”: 47.6 a.u.
Under “mean fluorescence intensity”, `2'F-ANA at 2 3 4 5 7 10 11 13` is recorded as 48.8 a.u.
`2'F-ANA at 5 6 7 8 11 13 14 15`: “mean fluorescence intensity” 49.1 a.u.
For `2'F-ANA at 5 6 8 9 14`, “mean fluorescence intensity” read 44.3 a.u.
`2'F-ANA at 1 5 7 9 13 14`: “mean fluorescence intensity” 42.4 a.u.
For `2'F-ANA at 3 5 6 7 8 9 10 11 12 13 15`, “mean fluorescence intensity” read 59.9 a.u.
For `2'F-ANA at 2 4 6 7 13 14`, “mean fluorescence intensity” read 86.5 a.u.
For `2'F-ANA at 1 3 6 8 10 13`, “mean fluorescence intensity” read 159 a.u.

Some of these lines once more (study 2):
`CAGGTTCC` gave an E-score of -0.0612.
For `CCGTTCCA`, the E-score was 0.117.
With `ATTTCCCG` the E-score was 0.19.
For `AAGAGAAG`, the E-score was -0.0596.
With `GCGTTGAA` the E-score was 0.254.
With `ACGATTGG` the E-score was -0.0383.
The E-score of `AGTTGCGA` is reported as -0.0788.
`ATCCAACA` has an E-score of -0.0907.
